Measurements from different studies.
A part holds a random share of what one study measured.
UniProt P10721, sequence (whole entry, unmodified, looked up): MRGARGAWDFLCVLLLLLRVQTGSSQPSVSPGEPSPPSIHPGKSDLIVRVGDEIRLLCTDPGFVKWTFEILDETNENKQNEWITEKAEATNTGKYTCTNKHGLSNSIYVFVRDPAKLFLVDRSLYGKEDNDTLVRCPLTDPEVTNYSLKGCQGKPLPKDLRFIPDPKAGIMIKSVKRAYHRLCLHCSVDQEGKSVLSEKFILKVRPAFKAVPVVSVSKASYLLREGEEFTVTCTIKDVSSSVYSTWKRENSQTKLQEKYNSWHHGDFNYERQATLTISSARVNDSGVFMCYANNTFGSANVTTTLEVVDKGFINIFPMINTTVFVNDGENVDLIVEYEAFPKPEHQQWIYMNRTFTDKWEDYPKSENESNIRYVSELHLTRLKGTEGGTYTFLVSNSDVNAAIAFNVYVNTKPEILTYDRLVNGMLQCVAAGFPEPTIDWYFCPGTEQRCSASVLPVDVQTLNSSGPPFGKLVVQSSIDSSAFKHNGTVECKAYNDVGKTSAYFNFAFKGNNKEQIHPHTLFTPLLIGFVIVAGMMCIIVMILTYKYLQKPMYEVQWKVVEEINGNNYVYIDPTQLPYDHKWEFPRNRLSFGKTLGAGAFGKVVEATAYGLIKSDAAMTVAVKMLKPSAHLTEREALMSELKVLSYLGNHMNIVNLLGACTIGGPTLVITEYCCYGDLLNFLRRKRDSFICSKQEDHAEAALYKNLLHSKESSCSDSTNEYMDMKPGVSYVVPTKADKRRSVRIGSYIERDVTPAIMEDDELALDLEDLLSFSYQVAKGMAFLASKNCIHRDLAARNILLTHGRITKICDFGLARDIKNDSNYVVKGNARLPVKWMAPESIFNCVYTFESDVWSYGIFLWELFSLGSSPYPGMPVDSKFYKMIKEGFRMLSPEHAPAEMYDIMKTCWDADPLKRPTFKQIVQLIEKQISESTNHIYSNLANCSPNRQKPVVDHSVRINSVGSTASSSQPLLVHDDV
UniProt Q13705, sequence (whole entry, looked up): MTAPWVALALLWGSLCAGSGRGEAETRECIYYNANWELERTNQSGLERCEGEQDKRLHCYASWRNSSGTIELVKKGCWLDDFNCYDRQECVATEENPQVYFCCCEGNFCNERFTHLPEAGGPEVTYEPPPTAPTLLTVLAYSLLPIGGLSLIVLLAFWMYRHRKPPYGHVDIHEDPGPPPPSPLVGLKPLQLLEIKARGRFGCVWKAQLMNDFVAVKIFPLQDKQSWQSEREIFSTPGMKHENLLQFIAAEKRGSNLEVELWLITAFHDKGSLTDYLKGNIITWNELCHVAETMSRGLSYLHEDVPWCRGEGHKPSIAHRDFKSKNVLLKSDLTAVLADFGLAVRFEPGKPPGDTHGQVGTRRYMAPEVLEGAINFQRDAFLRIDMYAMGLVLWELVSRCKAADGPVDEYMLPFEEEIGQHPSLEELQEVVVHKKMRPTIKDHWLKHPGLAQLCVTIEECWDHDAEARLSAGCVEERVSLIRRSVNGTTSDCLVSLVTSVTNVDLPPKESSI
UniProt P17948, sequence (whole entry, looked up): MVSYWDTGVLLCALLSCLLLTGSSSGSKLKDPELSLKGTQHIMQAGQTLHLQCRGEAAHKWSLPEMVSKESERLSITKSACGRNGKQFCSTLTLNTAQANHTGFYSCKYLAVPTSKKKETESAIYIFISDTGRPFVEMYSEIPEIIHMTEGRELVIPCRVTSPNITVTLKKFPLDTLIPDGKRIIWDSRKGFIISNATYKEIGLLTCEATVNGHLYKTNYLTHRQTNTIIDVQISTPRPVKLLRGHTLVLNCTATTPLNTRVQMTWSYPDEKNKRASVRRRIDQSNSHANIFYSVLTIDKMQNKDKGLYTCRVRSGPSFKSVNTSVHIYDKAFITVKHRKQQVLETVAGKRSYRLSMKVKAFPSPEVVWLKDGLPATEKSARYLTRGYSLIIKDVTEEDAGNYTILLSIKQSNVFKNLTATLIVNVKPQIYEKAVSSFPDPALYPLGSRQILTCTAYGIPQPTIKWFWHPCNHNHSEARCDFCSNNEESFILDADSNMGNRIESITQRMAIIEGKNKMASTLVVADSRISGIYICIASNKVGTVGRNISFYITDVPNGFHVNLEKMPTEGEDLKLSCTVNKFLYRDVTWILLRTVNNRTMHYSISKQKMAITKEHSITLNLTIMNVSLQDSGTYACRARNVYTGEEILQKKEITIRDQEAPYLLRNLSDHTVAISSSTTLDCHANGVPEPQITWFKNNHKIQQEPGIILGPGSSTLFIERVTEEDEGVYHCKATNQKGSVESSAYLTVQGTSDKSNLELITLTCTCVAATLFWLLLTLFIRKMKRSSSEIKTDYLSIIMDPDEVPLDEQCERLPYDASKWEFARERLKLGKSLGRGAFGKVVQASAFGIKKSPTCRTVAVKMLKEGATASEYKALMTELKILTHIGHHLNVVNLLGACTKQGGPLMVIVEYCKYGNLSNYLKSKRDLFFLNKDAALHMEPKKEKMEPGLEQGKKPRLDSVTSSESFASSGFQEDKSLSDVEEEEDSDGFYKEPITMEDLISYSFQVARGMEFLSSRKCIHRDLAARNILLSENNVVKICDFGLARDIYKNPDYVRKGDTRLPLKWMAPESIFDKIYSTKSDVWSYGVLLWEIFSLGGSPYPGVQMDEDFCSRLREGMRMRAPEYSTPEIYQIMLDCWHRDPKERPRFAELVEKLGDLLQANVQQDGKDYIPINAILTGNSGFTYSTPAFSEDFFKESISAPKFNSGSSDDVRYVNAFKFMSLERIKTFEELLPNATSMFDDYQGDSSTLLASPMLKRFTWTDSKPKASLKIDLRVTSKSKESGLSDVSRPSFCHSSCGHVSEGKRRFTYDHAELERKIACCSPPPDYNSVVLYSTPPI
UniProt P51617, sequence (whole entry, looked up): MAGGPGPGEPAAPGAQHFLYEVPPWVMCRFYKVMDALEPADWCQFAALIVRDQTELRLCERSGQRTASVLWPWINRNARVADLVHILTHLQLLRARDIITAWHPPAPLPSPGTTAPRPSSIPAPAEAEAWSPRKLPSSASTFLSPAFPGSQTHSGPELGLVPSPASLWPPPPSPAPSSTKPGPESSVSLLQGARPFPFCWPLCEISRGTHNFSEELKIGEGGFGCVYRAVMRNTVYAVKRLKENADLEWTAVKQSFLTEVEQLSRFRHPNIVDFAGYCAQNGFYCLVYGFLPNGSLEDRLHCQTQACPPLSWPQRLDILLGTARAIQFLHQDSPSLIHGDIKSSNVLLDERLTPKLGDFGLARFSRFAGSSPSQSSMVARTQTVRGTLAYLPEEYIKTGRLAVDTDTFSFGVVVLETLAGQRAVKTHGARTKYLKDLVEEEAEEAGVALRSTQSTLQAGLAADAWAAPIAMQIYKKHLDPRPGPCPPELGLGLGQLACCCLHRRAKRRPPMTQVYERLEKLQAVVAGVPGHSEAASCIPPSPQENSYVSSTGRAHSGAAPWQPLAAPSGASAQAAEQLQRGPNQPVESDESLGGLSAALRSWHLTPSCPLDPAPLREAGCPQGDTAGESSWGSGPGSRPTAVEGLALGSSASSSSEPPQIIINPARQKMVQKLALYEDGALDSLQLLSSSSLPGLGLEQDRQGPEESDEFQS
UniProt Q8N568, sequence (whole entry, looked up): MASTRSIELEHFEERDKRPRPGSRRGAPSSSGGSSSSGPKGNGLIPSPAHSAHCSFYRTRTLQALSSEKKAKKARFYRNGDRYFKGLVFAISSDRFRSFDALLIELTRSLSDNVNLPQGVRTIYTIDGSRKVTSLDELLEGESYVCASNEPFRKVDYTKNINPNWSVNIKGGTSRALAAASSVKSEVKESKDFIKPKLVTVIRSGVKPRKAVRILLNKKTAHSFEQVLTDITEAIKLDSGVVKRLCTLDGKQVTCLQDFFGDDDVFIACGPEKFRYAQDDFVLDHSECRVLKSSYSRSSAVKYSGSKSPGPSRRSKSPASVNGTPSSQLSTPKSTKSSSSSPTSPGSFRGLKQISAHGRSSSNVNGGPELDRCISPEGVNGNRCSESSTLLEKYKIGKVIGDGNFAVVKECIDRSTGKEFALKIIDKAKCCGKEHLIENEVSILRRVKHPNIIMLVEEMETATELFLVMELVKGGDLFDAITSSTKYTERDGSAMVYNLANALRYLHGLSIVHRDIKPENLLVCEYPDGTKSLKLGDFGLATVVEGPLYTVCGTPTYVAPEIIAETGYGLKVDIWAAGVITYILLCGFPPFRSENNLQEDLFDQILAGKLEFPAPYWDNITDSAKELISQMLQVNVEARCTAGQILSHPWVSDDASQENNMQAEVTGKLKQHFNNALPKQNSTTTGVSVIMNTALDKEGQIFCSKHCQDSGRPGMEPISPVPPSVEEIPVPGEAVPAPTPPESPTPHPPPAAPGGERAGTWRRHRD

Set 1
Compound: CCN1/C(=C/C=C2\CCCC(/C=C/C3=[N+](CC)c4ccccc4C3(C)C)=C2NCCCCCCCCN2CCC(Nc3nc4ccccc4n3Cc3ccc(F)cc3)CC2)C(C)(C)c2ccccc21
Cell line: U-87 MG
Concentration: concentration not given
Baseline: DMSO
| item | log2 fold change |
| --- | --- |
| OAS3 mRNA | -1.75 |
| RACGAP1 mRNA | -1.62 |
| FAT4 mRNA | -1.23 |
| CCDC74A mRNA | -0.967 |
| GAB2 mRNA | 1.65 |
| KPNA2 mRNA | -1.18 |
| PFDN2 mRNA | 0.819 |
| PHLDB3 mRNA | 1.33 |
| SGF29 mRNA | 0.934 |
| MEFV mRNA | -1.87 |
| H2AC6 mRNA | 1.69 |
| NR1D1 mRNA | 1.18 |
| TBC1D21 mRNA | -3.52 |
| IDH2 mRNA | -1.45 |
| AJM1 mRNA | -0.997 |
| SEMA3C mRNA | -1.68 |

Set 2
Structure (SMILES): CC[C@@]1(c2cccc(C(F)(F)F)c2)C2=C(Nc3n[nH]cc31)[C@H](F)C(C)(C)CC2=O (single isomer, unassigned)
Concentration: 1 µM
| target | effect on | technique | baseline | remaining binding |
| --- | --- | --- | --- | --- |
| IRAK1 (Homo sapiens, UniProt P51617) | binding | competition with immobilised ligand |  | 95% |
| CDK15 (Homo sapiens, UniProt Q96Q40) | kinase binding | KINOMEscan | DMSO control | 100% |
| KIT (Homo sapiens, UniProt P10721, D816H) | kinase binding | KINOMEscan | DMSO control | 100% |
| DCLK2 (Homo sapiens, UniProt Q8N568) | binding | competition with immobilised ligand |  | 100% |
| MAP3K1 (Homo sapiens, UniProt Q13233) | binding | competition with immobilised ligand |  | 100% |
| TAOK2 (Homo sapiens, UniProt Q9UL54) | kinase binding | KINOMEscan | DMSO control | 69% |
| Insulin receptor (INSR, Homo sapiens, UniProt P06213) | kinase binding | KINOMEscan | DMSO control | 100% |
| KIT (Homo sapiens, UniProt P10721, T670I/V559D) | binding | competition with immobilised ligand |  | 78% |
| PKN1 (Homo sapiens, UniProt Q16512) | kinase binding | KINOMEscan | DMSO control | 100% |
| FLT1 (Homo sapiens, UniProt P17948) | binding | competition with immobilised ligand |  | 99% |
| NEK3 (Homo sapiens, UniProt P51956) | binding | competition with immobilised ligand |  | 75% |
| MAPK10 (Homo sapiens, UniProt P53779) | kinase binding | KINOMEscan | DMSO control | 64% |
| Ribosomal protein S6 kinase alpha-6, N-terminal kinase domain (RPS6KA6, Homo sapiens, UniProt Q9UK32) | kinase binding | KINOMEscan | DMSO control | 100% |
| ACVR2B (Homo sapiens, UniProt Q13705) | binding | competition with immobilised ligand |  | 100% |
| LRRK2 (Homo sapiens, UniProt Q5S007, G2019S) | kinase binding | KINOMEscan | DMSO control | 81% |
| PAK5 (Homo sapiens, UniProt Q9P286) | kinase binding | KINOMEscan | DMSO control | 93% |
| FLT3 (Homo sapiens, UniProt P36888, R834Q) | kinase binding | KINOMEscan | DMSO control | 100% |
| ALK (Homo sapiens, UniProt Q9UM73, C1156Y) | binding | competition with immobilised ligand |  | 68% |
| MATK (Homo sapiens, UniProt P42679) | binding | competition with immobilised ligand |  | 100% |

Set 3
Target: Membrane-associated tyrosine- and threonine-specific cdc2-inhibitory kinase (PKMYT1, Homo sapiens, UniProt Q99640)
UniProt Q99640, sequence (whole entry, looked up): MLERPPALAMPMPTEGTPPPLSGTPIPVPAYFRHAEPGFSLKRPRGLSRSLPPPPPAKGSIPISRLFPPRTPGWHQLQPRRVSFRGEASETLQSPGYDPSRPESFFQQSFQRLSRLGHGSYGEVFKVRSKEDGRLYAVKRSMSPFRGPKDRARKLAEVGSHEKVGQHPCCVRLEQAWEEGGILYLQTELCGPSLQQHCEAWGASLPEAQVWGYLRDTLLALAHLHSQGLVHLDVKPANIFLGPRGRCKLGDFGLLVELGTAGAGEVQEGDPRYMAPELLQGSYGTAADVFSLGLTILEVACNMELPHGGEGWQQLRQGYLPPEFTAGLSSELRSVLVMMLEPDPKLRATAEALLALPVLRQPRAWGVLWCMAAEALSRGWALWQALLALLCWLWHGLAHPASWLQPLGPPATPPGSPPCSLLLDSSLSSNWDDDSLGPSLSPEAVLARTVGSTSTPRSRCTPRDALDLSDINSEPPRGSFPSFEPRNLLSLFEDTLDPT
Action: degrader
Technique: automated immunoblot (Jess)
Cell line: HCC1569
Time: 24 h
| Compound | DC50 [nM] |
| --- | --- |
| Cc1ccc(O)c(C)c1-c1cnc2[nH]c(-c3cnc(N4CC5(CC(CN6CCN(c7ccc(NC8CCC(=O)NC8=O)cc7F)CC6)C5)C4)nc3)cc2c1C#N (centres unmarked) | 0.3 |
| Cc1ccc(O)c(C)c1-c1cnc2[nH]c(-c3cnc(N4CCC5(CC4)CC(CN4CCN(c6ccc(NC7CCC(=O)NC7=O)cc6F)CC4)C5)nc3)cc2c1C#N (centres unmarked) | 0.6 |
| Cc1ccc(O)c(C)c1-c1cnc2[nH]c(-c3cnc(N4CCC(CN5CCN(c6ccc7c(c6F)CN(C6CCC(=O)NC6=O)C7=O)CC5)CC4)nc3)cc2c1C#N (centres unmarked) | 0.3 |
| Cc1ccc(O)c(C)c1-c1cnc2[nH]c(-c3cnc(N4CCC5(CC4)CC(N4CCN(c6ccc(NC7CCC(=O)NC7=O)cc6F)CC4)CO5)nc3)cc2c1C#N (centres unmarked) | 0.3 |
| Cc1ccc(O)c(C)c1-c1cnc2[nH]c(-c3cnc(N4CCC(CN5CCN(c6ccc(NC7CCC(=O)NC7=O)c(F)c6)CC5)CC4)nc3)cc2c1C#N (racemic) | > 1000 |
| Cc1ccc(O)c(C)c1-c1cnc2[nH]c(-c3cnc(N4CCC(CN5CCN(c6ccc7c(c6)CN(C6CCC(=O)NC6=O)C7=O)CC5)CC4)nc3)cc2c1C#N (centres unmarked) | 0.2 |

Mixed results
VHL with Elongin B/C: von Hippel-Lindau disease tumor suppressor, with Elongin B/C (VHL, Homo sapiens, UniProt P40337)
| SMILES | target | assay | test system | setting | quantity | result |
| --- | --- | --- | --- | --- | --- | --- |
| Cc1ncsc1-c1ccc(C2(NC(=O)C3CC(O)CN3C(=O)C(NC(=O)c3ccc(COc4c(-c5c(C)c(F)cc6[nH]ncc56)c(C5CC5)cc5c(N6CC7CC6CN7)nc(OC6CCOCC6)nc45)cc3)C(C)C)CC2)cc1 (centres unmarked) | VHL with Elongin B/C | SPR, single-cycle | immobilized VCB complex | binary, geometric mean | Kd | 714 nM |
| Cc1ncsc1-c1ccc(C(CO)NC(=O)C2CC(O)CN2C(=O)C(C(C)C)n2cc(-c3ccc(COc4c(-c5c(C)c(F)cc6[nH]ncc56)c(C5CC5)cc5c(N6CC7CC6CN7)nc(OC6CCOCC6)nc45)cc3)nn2)cc1 (centres unmarked) | GTPase KRas (KRAS, Homo sapiens, UniProt P01116, G12D) | degrader, In-Cell ELISA | PK-59, VHL siRNA | 1440 min | DC50 | 48.3 nM |
| Cc1ncsc1-c1ccc(C(CO)NC(=O)C2CC(O)CN2C(=O)C(NC(=O)c2ccc(COc3c(-c4c(C)c(F)cc5[nH]ncc45)c(C4CC4)cc4c(N5CC6CC5CN6)nc(OC5CCOCC5)nc34)cc2)C(C)C)cc1 (centres unmarked) | VHL with Elongin B/C | SPR, single-cycle | immobilized VCB complex | binary, geometric mean | kon | 140000 M⁻¹ s⁻¹ |

For quick reference, copied from above (set 1):
| item | log2 fold change |
| --- | --- |
| H2AC6 mRNA | 1.69 |
| FAT4 mRNA | -1.23 |
| CCDC74A mRNA | -0.967 |
| RACGAP1 mRNA | -1.62 |
| SEMA3C mRNA | -1.68 |
